Measurements gathered from unrelated publications.
A part holds a random share of what one study measured.

Set 1
Target: RNA binding protein fox-1 homolog 2, RRM domain, GST-SBP tag (RBFOX2, Homo sapiens, UniProt O43251-10, residues 100-194)
Method: RNA Bind-n-Seq
Molecule type: RNA
Medium: in vitro
Tested at: 365 nM
Notes: natural RNA segment, single round, ends assumed
Relative to: no-protein control
Direction: higher = stronger binding
Construct (chain): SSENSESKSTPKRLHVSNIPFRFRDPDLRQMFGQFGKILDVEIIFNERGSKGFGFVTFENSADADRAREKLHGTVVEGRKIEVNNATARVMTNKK
`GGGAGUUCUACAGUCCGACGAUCCCUAGCUGGCCCCAGGCUGGGGUCCUAUGCAAAGCAGGAUCCCACUAAUGGGAUUCAGGCAGAAGUGUCUACCUUGAUAGGUGGGGUGGGACCACAUCCUCCACUGUGGCUGGAAUUCUCGGGUGCCAA`: “RBNS enrichment (R)” 0.286.
Under “RBNS enrichment (R)”, `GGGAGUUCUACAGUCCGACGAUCUUUAUUAAGACAGAAUUUUGUAUAAACUAUUUAUUGUGCUCUCUGUGGAACUGAAGUUUGAUUUAUUUUUGUACUACACGGCAUGGGUUUGUUGACACUUUAAUUUUGCUUGGAAUUCUCGGGUGCCAA` is recorded as 2.92.
Under “RBNS enrichment (R)”, `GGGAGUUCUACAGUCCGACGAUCGCCCACCAUUAACUCAUUCAUGUAGUUUAUUCAAGUGAUUUAUGUAUUUAAACUAAAUAUUGAAAAUGUUAGUCAAAUUGUGGUUUGCUUGUCAGGUAUUUAUAUCAGUCUGGAAUUCUCGGGUGCCAA` is recorded as 0.607.
`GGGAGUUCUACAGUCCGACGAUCUUAUUUGUUUCUCCAGUAUAUAGCUUUGUUUUAGCCUUUGUAAAUUACUUUUAUGAUAGUAGAAAUAUUAUAAGCCUAAGACAUGGACUAUCCAUUUUGUAAAACGGAUUUGGAAUUCUCGGGUGCCAA` — result for “RBNS enrichment (R)”: 0.457.
`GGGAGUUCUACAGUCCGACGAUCAACGCCUGUUACACACAAACUGUUGUGGGUUCCUGCCAGGCUUGAAGAAAAUGAUCUGAAUUUUUUCCUCCUUUUGGUUUUAUUUUGUUGGUUUAUUUUGUGUUUUCUUUUGGAAUUCUCGGGUGCCAA`: “RBNS enrichment (R)” 1.09.
For `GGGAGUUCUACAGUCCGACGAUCCCGAGAAGCCAGGGGCCACCCUGUGAGUCCCAGCAUCCAAAGCCCCGAGAACGAGGAAGAUGGAUGUCCCAGCUCCCAAAGGGAGGAUUCUCCCUUCCUCCUCCUUCUUUUGGAAUUCUCGGGUGCCAA`, “RBNS enrichment (R)” read 0.657.
`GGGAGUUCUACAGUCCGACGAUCUCUGUCUUUGCAGUUUUGGUAAUUCUGUGGUCUAUUUAUACAGAUAUUAAAAUCUUGUUUAUAGACAGCUGUGUGAUGUUUAACUUCAAAGCCCAGGGAUGACAACGUGGUGGAAUUCUCGGGUGCCAA` — result for “RBNS enrichment (R)”: 0.269.
`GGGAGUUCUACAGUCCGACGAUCAAGGAGAAAGGCACUUGUGUGCUAAGUGAUGGCCCACCCUCACCACCAUCACCCUCUCUGUCCCUCCUCAGCCACGCCCAAGUGUACUGGGAUACCUAAGGACCAAUGUUUGGAAUUCUCGGGUGCCAA` — result for “RBNS enrichment (R)”: 0.354.
For `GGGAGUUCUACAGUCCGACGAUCAGGAUCUCAUAGUUAUUUUAUUAGGCCAGCCUUAUUCCAUGUCGGCAAGAGGUUUCUUGUGGAAAUUAUGUCCUUUCUGAGAGGAGCUGGGGAUUAGAUGCUCCUGCAUUUGGAAUUCUCGGGUGCCAA`, “RBNS enrichment (R)” read 0.4.

Set 2
Target: Fragile X messenger ribonucleoprotein 1, C-terminal low-complexity region (Fmr1, Mus musculus, UniProt P35922)
Method: RNA Bind-n-Seq
Molecule type: RNA
Medium: in vitro
Tested at: 200 nM
Notes: whole 134-nt RNA, ends assumed
Added: 150 mM KCl
Relative to: input library
Direction: higher = stronger binding
The log2 enrichment of `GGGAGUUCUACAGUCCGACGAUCCCUGUGCUACACAUCGUAUGUACCGAAUCAAAUUUUUUUAAACCCCCCCAAAUUUUUAAAAAAGUAUUAUGUUACGCCGUUCGGAUCUGCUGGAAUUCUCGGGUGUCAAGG` is reported as 0.177.
With `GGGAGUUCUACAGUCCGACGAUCAGUCCUGUGCUACACAUCGUAUGUACCGAAUCGGGGUUUGGGGAAAAAGGGGUGGGGAAAGUAUUAUGUUACGCCGUUCGGAUCUGCACUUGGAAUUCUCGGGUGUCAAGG` the log2 enrichment was 0.787.
With `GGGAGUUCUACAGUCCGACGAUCUGGCCCUGGUGGCAUGCGGGGAGGAAGAGGUGGCCUCAUGGAUCGUGGUGGUCCCGGUGGAAUGUUCGGAGGUGGCCGUGGUGGAGACAGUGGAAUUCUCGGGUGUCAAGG` the log2 enrichment was 0.174.
`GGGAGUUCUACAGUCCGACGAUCCACAGACAACACGCACCCAGACAGACACAGAGGGAAGGGGUUGGGAUGGGGACAGGGUGCACAGCAGGGCGGGGUAGGACCCCAGCCCCUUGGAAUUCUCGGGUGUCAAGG` gave a log2 enrichment of 1.35.
`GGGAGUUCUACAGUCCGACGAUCGUCCUGUGCUACACAUCGUAUGUACCGAAUCGGGCCCCCGGGCCCCCGGGGCCCCCGGGAAAGUAUUAUGUUACGCCGUUCGGAUCUGCAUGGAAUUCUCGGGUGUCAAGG` gave a log2 enrichment of -1.31.
`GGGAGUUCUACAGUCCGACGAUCCACAGACAACACGCACCCACACAGACACAGAGGGAAGGGGUUGGGAUGGGGACAGGGUGCACAGCAGGGCGGGGUAGGACCCCGGCCCCUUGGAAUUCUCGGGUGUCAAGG` gave a log2 enrichment of 1.39.
The log2 enrichment of `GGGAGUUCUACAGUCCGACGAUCCCUGUGCUACACAUCGUAUGUACCGAAUCGGGGUUUUUUGGGUUUUUUGGGUUUUUUGGGGAAAGUAUUAUGUUACGCCGUUCGGAUCUGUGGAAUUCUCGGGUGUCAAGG` is reported as -0.532.
`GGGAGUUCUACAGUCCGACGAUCAAGUCCUGUGCUACACAUCGUAUGUACCGAAUCGGAAAAGGGGAAAAGGGAAAAGGAAAGUAUUAUGUUACGCCGUUCGGAUCUGCACUUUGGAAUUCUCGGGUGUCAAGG` gave a log2 enrichment of -0.505.
`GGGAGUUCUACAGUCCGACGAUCUGGGAGGUGGAUUUUGUUUAUUUUUUUAGCUCAGUUCCAGGGGUGGGAAUUUUUUUUUAAUAUGUGUCAUGAAUAAAGUUGUUUUUGAAAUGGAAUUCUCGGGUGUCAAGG` gave a log2 enrichment of 0.329.
`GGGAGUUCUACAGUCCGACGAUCUGGGCAAUGUGUCGGCUGCAUGCACGAGCCAGGAACUGCGCAGCCUCUUCGAGCGCCGCGGACGCGUCAUCGAGUGUGACGUGGUGAAAGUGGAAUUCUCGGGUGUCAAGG` gave a log2 enrichment of -1.15.

Set 3
Target: RING finger protein unkempt homolog, zinc fingers 1-6, GST-SBP tag (UNK, Homo sapiens, UniProt Q9C0B0, residues 30-357)
Method: RNA Bind-n-Seq
Molecule type: RNA
Medium: in vitro
Tested at: not given
Notes: RNA with constant flanks, human and mouse sites, ends assumed
Relative to: input RNA pool
Direction: higher = stronger binding
Construct (chain): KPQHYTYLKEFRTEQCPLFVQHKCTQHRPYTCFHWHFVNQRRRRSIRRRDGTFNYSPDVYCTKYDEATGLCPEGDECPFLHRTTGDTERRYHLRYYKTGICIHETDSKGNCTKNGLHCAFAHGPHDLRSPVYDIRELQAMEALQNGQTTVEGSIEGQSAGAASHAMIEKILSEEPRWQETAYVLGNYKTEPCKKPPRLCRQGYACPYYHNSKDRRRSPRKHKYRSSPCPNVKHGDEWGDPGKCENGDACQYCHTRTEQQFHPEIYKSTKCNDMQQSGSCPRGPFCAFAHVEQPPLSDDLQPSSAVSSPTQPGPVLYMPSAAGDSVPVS
For `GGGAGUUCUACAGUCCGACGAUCCAGAAAUAUUGGUCAAAUUUAUUGACGUUGGCGGCUACAAACUUCUUAACAAUUGGCUGACGUAUUCAAAGACAACCAACAACAUUCCCCUCCUCCAGCAAAUUCUACUGACCCUGCAGCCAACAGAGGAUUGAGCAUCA`, the bound/input enrichment was 0.623 ratio.
`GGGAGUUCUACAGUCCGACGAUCCAUUUAAAGUGGCAAAGCUCUAAAGCGUUCUGAGUACUAAAUACAUUUUUAACUUGACUGUAGCUGCCUAUAAACUUUCAGGUAAAGGAAAAAGGGAAGUGCGGGUAGUGGAGAUUUUGCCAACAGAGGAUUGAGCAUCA` gave a bound/input enrichment of 0.422 ratio.
`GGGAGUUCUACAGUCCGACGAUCGUCCAGGCUUUGAAACAGGAAAUAGAGGUUCUAAAAGAAGAAAUAGGAAAUGCCCAGCUUGAAAAGGCUCACCAGCUGUCUGUCACUUCUCAAGUCCAGGAGCUGCAGAACUUAUUAAGACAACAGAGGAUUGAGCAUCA` gave a bound/input enrichment of 1.16 ratio.
`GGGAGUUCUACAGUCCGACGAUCCUCGAGAGGAACCAGGACAUGAGCCGGCAGUACGAGCAGAUGCACAAGGAGCUGACGGACAAGCUAGAGCACCUAGAACAAGAGAAACAUGAACUGAGAAGGCGAUUCGAGAAUCGAGAACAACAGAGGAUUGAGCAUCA` has a bound/input enrichment of 0.0936 ratio.
The bound/input enrichment of `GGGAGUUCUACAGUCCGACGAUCUCUGGGACGCACAGAGACCGUGAAGAUUCCAAGUUCAGGAGAACUCGACCGUUGGAAUGCCAAGAUGCCUUGGAAACAGCAGCCCGAGCCGAGGGCCUCUCUCUUGAUGCCUCCAUGCAUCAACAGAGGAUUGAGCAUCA` is reported as 0.103 ratio.
`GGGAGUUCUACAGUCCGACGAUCCACACACACACACACACACACACACACACACACACACACACACACACACACGGUGUUUCUAGAGAUCCAGUUGAGGACAUCUAGCAAGGGGAGUGACUGCCUCCCUUGGGCCAAGUUCCCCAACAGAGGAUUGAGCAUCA` gave a bound/input enrichment of 0.398 ratio.
`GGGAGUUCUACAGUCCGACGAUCAUUCCUCUUCCAGCUGCUGAAAGGCCUGGGAUUCUGUCACAGCCGCAACGUGCUACAUAGGGACCUGAAGCCCCAGAACCUGCUCAUAAACAGGAAUGGGGAGUUGAAAUUGGCUGAUUUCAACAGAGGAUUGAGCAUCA` gave a bound/input enrichment of 0.117 ratio.
`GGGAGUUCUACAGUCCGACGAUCCUAAGCUCAGCUAAUGGAAGAAGAGUCUAGUUUCUUUGAGGCUUUGAUUUUGGUUAAACUAUAGAGCUCAUACCUUUCUGUAUGGUGCAGCUUACUAUUGUCUUUGGAUUGGUAACUUAACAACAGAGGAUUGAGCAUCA` gave a bound/input enrichment of 0.141 ratio.
`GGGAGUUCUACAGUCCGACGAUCGUACAGCAGAAACCAGACUGCCGGCCAUAUUGGGAGAAGGAUGACCCUUCCAUGCCUCUGCCCUUUGACCUCACAGACGUGGUUUCCGAGCUCAGAGGCCAGCUGCUGGAAGCAAGAUCCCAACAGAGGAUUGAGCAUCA` has a bound/input enrichment of 0.103 ratio.
With `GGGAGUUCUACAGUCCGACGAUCAGGUCGCGGGCGCCACAGGUGGAAGAAGAAAGGUGCCACUUUGGCAUGAAGAUAGACUCACUUAGACGUCAAUCUUUUAAGCUGAGUGCAUUGUGAUUUCCAAUAAUUGAGGCAGUGGUUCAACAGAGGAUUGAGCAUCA` the bound/input enrichment was 0.249 ratio.
For `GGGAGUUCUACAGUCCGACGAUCAAGAUAAAACCAGAAAUACAUCCUGAAGAACGAAUGAACGGACAAGAAGUAUUUUAUCUGACUUACACCUCUGAAGAUGUGGAAGGGAAUGUUCAGCUGGAAACUGGAGAUAAAAUUAACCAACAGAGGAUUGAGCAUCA`, the bound/input enrichment was 0.204 ratio.

Set 4
Target: Histone acetyltransferase KAT6A, winged helix 1, GST fusion (KAT6A, Homo sapiens, UniProt Q92794, residues 1-85)
Method: protein binding microarray
Molecule type: double-stranded DNA, one strand shown
Medium: in vitro
Tested at: not given
Notes: 8-mer, flanks averaged, mean of 2 arrays, mostly near background
Relative to: not given
Direction: higher = stronger binding
Residues (chain): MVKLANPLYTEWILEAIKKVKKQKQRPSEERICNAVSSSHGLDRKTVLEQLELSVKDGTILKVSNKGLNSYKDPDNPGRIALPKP
The E-score of `ATGACATG` is reported as -0.191.
With `GCTCATAA` the E-score was -0.0195.
`AGTTTGTC` gave an E-score of -0.162.
`CGTCATCA` has an E-score of -0.0919.
For `ATCCGTCC`, the E-score was 0.172.
`AGAACGAT` gave an E-score of -0.133.
`CCGAGGAC` has an E-score of 0.115.
For `GACTGGAC`, the E-score was -0.0573.
The E-score of `ACCTTATA` is reported as -0.117.
With `CAGCTGCC` the E-score was 0.065.
For `AATTCAAG`, the E-score was -0.247.
The E-score of `GGTATTAA` is reported as 0.117.
`CTCCGCCA` has an E-score of 0.137.
The E-score of `AATGACGA` is reported as -0.164.
`AATATGAC` has an E-score of -0.128.
For `TCGACCCA`, the E-score was -0.237.
The E-score of `GCTTAAAC` is reported as 0.075.
With `CTTTCGCC` the E-score was 0.128.
The E-score of `TCCACTAA` is reported as -0.137.
`ACAGAACC` gave an E-score of -0.054.
The E-score of `CATATTTA` is reported as -0.0879.
